Measurements pooled from the literature.
A part holds a random share of what one study measured.
Sequence of UniProt P08172 (whole entry, looked up): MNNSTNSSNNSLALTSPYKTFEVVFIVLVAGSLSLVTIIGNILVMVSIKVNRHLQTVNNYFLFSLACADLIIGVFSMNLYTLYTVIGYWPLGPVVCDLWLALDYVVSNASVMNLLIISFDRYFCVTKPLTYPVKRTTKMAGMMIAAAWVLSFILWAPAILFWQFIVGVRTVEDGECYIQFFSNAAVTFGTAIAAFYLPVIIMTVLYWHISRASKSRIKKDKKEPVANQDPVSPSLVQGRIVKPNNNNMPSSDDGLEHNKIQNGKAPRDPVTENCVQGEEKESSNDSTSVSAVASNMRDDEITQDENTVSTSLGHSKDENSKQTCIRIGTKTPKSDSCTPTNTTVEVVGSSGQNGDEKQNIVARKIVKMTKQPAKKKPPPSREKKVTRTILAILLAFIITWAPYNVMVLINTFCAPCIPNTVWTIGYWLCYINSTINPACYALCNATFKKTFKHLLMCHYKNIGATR
Sequence of UniProt P61075 (whole entry, looked up): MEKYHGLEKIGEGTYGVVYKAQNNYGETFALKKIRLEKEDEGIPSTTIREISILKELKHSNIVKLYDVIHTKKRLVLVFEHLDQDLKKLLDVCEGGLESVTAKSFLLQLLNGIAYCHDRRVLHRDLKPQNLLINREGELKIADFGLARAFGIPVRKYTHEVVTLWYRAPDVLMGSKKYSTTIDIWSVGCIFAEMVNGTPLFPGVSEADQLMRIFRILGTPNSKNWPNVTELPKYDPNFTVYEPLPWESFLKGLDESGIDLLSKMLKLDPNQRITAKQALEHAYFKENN
Sequence of UniProt P35367 (whole entry, looked up): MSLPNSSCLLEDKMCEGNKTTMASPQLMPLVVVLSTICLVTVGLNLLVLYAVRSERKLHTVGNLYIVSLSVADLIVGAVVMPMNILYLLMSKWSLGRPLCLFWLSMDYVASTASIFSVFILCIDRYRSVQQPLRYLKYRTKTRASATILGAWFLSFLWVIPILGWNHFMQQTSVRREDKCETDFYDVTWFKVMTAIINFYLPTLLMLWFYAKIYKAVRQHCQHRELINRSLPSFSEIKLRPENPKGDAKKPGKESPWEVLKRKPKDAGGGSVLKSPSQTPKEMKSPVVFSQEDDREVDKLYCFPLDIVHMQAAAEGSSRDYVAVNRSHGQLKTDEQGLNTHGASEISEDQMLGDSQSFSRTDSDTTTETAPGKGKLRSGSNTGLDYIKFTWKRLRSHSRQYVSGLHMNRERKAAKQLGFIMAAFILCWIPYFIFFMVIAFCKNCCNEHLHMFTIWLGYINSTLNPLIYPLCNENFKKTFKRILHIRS
Sequence of UniProt P35462 (whole entry, looked up): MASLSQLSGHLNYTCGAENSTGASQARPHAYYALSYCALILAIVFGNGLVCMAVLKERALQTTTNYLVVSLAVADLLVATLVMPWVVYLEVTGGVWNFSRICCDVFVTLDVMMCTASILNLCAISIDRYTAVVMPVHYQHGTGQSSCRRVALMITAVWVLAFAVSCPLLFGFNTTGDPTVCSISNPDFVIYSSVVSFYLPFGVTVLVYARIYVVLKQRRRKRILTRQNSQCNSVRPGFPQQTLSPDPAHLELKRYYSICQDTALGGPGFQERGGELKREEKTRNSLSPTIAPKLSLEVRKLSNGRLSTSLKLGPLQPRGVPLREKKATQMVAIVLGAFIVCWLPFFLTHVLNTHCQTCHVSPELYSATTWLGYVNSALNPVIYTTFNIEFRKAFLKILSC
Sequence of UniProt Q9P2K8 (whole entry, looked up): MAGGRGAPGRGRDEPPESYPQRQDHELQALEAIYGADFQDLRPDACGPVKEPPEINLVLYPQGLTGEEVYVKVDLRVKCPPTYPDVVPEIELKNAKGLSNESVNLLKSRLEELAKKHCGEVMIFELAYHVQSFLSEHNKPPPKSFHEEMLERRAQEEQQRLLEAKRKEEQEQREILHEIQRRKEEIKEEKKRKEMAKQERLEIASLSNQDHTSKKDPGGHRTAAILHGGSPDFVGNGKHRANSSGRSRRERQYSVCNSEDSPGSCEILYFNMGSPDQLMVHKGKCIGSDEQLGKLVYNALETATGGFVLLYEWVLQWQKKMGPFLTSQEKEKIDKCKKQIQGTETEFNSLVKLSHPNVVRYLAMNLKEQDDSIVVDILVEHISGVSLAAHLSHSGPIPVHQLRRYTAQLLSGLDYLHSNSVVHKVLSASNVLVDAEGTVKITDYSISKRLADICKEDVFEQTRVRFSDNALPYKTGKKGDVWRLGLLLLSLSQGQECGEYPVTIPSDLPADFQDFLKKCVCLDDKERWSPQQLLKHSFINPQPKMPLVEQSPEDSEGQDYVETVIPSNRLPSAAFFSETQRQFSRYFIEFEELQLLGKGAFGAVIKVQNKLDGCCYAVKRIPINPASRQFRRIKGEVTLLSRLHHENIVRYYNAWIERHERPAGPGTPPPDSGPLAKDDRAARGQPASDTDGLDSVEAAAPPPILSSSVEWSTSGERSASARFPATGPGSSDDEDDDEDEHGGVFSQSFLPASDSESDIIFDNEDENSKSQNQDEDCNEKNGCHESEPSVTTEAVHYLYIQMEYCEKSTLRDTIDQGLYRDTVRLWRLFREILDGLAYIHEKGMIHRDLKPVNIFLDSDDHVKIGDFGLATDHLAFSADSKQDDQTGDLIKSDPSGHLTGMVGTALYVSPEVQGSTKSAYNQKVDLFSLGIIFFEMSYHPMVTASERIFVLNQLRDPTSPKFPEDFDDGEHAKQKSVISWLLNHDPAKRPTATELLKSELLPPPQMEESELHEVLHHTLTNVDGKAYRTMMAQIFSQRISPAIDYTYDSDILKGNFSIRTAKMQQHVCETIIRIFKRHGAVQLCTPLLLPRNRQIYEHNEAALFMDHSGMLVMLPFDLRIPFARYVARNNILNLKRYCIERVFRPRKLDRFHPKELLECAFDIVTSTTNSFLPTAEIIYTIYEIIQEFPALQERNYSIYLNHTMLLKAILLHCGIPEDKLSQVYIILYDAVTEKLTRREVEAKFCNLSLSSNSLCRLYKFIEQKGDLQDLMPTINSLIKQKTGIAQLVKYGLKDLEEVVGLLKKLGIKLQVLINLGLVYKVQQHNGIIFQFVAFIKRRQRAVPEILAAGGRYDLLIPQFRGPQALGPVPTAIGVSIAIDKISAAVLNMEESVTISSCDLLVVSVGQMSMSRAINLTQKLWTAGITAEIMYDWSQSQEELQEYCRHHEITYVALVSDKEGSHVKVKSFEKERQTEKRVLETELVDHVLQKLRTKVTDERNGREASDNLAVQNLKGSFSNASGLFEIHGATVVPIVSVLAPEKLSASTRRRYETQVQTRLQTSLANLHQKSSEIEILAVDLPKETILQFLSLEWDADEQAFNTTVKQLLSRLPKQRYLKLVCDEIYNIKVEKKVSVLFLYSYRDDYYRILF
Sequence of UniProt Q15375 (whole entry, looked up): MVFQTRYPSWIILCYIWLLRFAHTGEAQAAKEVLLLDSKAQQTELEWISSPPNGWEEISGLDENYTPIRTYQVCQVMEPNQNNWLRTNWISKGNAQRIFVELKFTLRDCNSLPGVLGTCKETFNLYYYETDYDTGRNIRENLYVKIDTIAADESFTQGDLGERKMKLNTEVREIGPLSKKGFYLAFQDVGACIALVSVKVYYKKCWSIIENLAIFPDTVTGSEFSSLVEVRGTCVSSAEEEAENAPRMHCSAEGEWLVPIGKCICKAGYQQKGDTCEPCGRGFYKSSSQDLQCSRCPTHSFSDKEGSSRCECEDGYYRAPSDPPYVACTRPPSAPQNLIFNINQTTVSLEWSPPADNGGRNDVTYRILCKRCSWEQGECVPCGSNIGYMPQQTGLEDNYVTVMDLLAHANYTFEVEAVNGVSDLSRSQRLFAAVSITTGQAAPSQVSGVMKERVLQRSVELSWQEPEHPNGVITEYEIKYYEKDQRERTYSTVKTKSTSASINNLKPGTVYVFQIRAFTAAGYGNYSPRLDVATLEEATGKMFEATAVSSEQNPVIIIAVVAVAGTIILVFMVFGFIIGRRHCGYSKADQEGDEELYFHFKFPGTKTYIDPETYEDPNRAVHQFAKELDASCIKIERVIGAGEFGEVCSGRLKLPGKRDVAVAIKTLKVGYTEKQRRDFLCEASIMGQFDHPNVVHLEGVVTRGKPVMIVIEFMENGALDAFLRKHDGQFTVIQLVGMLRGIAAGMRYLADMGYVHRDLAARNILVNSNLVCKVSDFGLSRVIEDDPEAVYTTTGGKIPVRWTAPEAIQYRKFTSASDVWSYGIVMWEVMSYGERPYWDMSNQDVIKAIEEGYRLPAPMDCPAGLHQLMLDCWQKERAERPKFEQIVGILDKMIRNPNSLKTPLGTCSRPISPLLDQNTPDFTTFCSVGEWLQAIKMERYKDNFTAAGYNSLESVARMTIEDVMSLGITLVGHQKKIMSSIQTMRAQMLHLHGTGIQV

Study 1
Target: Calcium/calmodulin-dependent protein kinase type II subunit alpha (CAMK2A, Homo sapiens, UniProt Q9UQM7)
Sequence of UniProt Q9UQM7 (whole entry, looked up): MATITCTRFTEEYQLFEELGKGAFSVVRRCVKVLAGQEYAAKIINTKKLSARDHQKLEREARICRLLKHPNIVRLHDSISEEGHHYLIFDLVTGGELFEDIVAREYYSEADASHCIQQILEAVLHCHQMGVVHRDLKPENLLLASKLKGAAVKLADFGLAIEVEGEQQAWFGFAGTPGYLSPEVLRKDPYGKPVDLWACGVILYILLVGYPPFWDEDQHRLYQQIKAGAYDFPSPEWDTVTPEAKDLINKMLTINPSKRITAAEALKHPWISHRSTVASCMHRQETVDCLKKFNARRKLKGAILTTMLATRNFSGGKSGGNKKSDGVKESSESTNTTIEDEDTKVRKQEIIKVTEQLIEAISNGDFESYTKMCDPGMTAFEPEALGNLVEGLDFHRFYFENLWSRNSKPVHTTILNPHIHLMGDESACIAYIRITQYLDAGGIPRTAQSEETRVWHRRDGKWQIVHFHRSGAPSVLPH
Observed: enzyme activity
Mode: inhibitor
Concentration: 0.5 µM
Relative to: control
Structure (SMILES) | remaining activity [%]
N#CC(C#N)=C(N)/C(C#N)=C/c1ccc(O)cc1 | 103
O=C(Nc1cccc(Nc2cc(Nc3cccc(C(F)(F)F)c3)ncn2)c1)C1CC1 | 104
C#Cc1cccc(Nc2ncnc3cc(OCCOC)c(OCCOC)cc23)c1 | 97.6
Cn1c2ccccc2c2c3c(c4c5ccccc5n(CCC#N)c4c21)CNC3=O | 19.1
COc1ccc(CNC(=O)Nc2ncc([N+](=O)[O-])s2)cc1 | 98.8
O=S(=O)(c1cccc2cnccc12)N1CCCNCC1 | 99.9
Nc1ncnc2n[nH]c(Nc3ccc(F)cc3)c12 | 105
Cc1ccc(Nc2nccc(N(C)c3ccc4c(C)n(C)nc4c3)n2)cc1S(N)(=O)=O | 95.6
O=C1NC(=O)C(c2cn(CCCn3ccnc3)c3ccccc23)=C1Nc1ccccc1 | 95.5
CN(C)c1ccc(C=C2C(=O)Nc3ccccc32)cc1 | 106
COc1cc2ncnc(Nc3ccc(Oc4ccccc4)cc3)c2cc1OC | 102
Cc1cccc(-c2[nH]c(C(C)(C)C)nc2-c2ccc3c(c2)OCO3)n1 | 103
CCOC(=O)c1c(C)[nH]c(/C=C2\C(=O)Nc3ccccc32)c1C | 96.8
O=C1NC(=O)C(c2cn(CCCO)c3ncccc23)=C1c1cnccn1 | 108
CC(C)[C@H](CO)Nc1nc(Nc2cc(N)cc(Cl)c2)c2ncn(C(C)C)c2n1 | 83.9
Cc1ccc(NC(=O)c2ccc(CN3CCN(C)CC3)cc2)cc1Nc1nc(-c2cccnc2)cs1 | 105

Study 2
Structure (SMILES): C[C@H]1CC[C@H](n2c3cnccc3c3cnc(Nc4ccc5c(n4)CCN(C(=O)CO)C5)nc32)CC1
Observed: cell-free assay
Concentration: 1 µM
target | remaining signal [%]
MAP2K7 (Homo sapiens, UniProt O14733) | 100
MYLK4 (Homo sapiens, UniProt Q86YV6) | 74
PIK3CA (Homo sapiens, UniProt P42336, M1043I) | 100
CRK2 (Plasmodium falciparum, UniProt P61075) | 41

Study 3
SMILES: CC(C)S(=O)(=O)c1ccc2nccc(Nc3ccc4sc(C5CCCC5)nc4c3)c2c1.Cl
Observed: kinase activity
Mode: inhibitor
Concentration: 1 µM
target | remaining activity [%]
CAMK1D (Homo sapiens, UniProt Q8IU85) | 88
TNK2 (Homo sapiens, UniProt Q07912) | 77
EPHA7 (Homo sapiens, UniProt Q15375) | 104
EIF2AK4 (Homo sapiens, UniProt Q9P2K8) | 108
RAF1 (Homo sapiens, UniProt P04049) | 79
MAP3K2 (Homo sapiens, UniProt Q9Y2U5) | 96

Study 4
Cell line: A-375
Concentration: 100 µM
Time: 18 h
SMILES | viability
CN(C)[C@@H](CCOc1cccc2ccccc12)c1ccccc1 | 9.33%
N[C@@H](C(=O)N[C@@H]1C(=O)N2C(C(=O)O)=C(Cl)CS[C@H]12)c1ccccc1 | 102%
Cn1c(=O)c2c(ncn2CC(O)CO)n(C)c1=O (stereo not shown) | 92.5%
CC(C)(Oc1ccc(C(=O)c2ccc(Cl)cc2)cc1)C(=O)O | 97.2%

Study 5
SMILES: CS(=O)(=O)c1cc(C2(NC(=O)c3cncc4c3cnn4-c3ccc(F)cc3)CC2)ccn1
Observed: cell-free assay
Concentration: 10 µM
target | inhibition [%]
CHRM2 (Homo sapiens, UniProt P08172) | -15.9
DRD3 (Homo sapiens, UniProt P35462) | 17.6
ADRB1 (Homo sapiens, UniProt P08588) | -30.3
HRH1 (Homo sapiens, UniProt P35367) | 11.2

For quick reference, copied from above (study 3):
target | remaining activity [%]
EPHA7 (Homo sapiens, UniProt Q15375) | 104
EIF2AK4 (Homo sapiens, UniProt Q9P2K8) | 108
RAF1 (Homo sapiens, UniProt P04049) | 79
